# Measured values from different studies.
# Compare with care: the assays were run in different laboratories. Values joined by “and” are separate records of one study, mostly repeats; a detail may differ. ± marks the error that the study gave.
# Metallo-beta-lactamase type 2: Metallo-beta-lactamase type 2 (Serratia marcescens, UniProt P52699)
# Dihydrofolate reductase: Dihydrofolate reductase (Enterococcus faecalis, UniProt Q834R2)
# Beta-lactamase ADC-7: Beta-lactamase ADC-7 (Acinetobacter baumannii, UniProt Q6DRA1)
# RNASE1: Ribonuclease pancreatic (RNASE1, Bos taurus, UniProt P61823)
# FUT3: FUT3 (Homo sapiens, UniProt P21217)
# MAPK14: Mitogen-activated protein kinase 14 (MAPK14, Homo sapiens, UniProt Q16539)
# EPHA4: Ephrin type-A receptor 4 (EPHA4, Homo sapiens, UniProt P54764)
# Aminodeoxyfutalosine nucleosidase: Aminodeoxyfutalosine nucleosidase (Helicobacter pylori, UniProt Q9ZMY2)
# CASP6: Caspase-6 (CASP6, Homo sapiens, UniProt P55212)
# cathepsin H: cathepsin H (Capra hircus, UniProt A0A452G5L2)
# Nos1: Nitric oxide synthase 1 (Nos1, Rattus norvegicus, UniProt P29476)
SMILES,target,test,test system,setting,Ki
CN(C)c1ccc2c(c1)C(=O)N(CCS)C2=O,Metallo-beta-lactamase type 2,"enzyme activity, inhibitor",,"Km 4.8 µM, added: chromacef 25 µM",0.075 ± 0.006 µM
CNC(=O)C[C@@H]1C(=O)N(Cc2ccc(-c3ccccc3)cc2)C2=CCCC[C@]21C(=O)O (relative stereo),"Fumarate hydratase, mitochondrial (FH, Homo sapiens, UniProt P07954)","enzyme activity, inhibitor, absorbance",,,4.5 µM
COc1ccc(CC2c3ccccc3C=NN2C(=O)/C=C/c2cc(Cc3cnc(N)nc3N)cc(OC)c2OC)cc1 (stereo not drawn),Dihydrofolate reductase,"enzyme activity, inhibitor",,added: dihydrofolate (Km 10.9 µM),0.0067 µM
COC(=O)c1ccc(CS(=O)(=O)NCc2cn(CB(O)O)nn2)cc1,Beta-lactamase ADC-7,"enzyme activity, inhibitor",,added: nitrocefin,0.39 ± 0.3 µM
CC(C)OP(=O)(O)OCCCOP(=O)(O)OCCCOP(=O)(O)OCCCOP(=O)(O)OC(C)C,RNASE1,"enzyme activity, inhibitor, fluorescence",,,> 10000 µM
Nc1nc2c(ncn2[C@@H]2O[C@H](COP(=O)(O)OP(=O)(O)O[C@H]3O[C@@H](CNC(=O)CCCc4ccccc4)[C@@H](O)[C@@H](O)[C@@H]3F)[C@@H](O)[C@H]2O)c(=O)[nH]1,FUT3,"enzyme activity, inhibitor",,,2.1 µM
C#CCOC(=O)[C@@]1(C)C=C(C(=O)OC(C)(C)C)C(=O)CC1,MAPK14,"ligand displacement, FP",,,3.5 µM
CNC(=O)C1CCN(c2ccccc2NC(=O)c2ccc(-c3cc(OC)ccc3C)c(C)c2)CC1,EPHA4,,,,> 0.25 µM
NS(=O)(=O)c1cccc(-c2cn(CB(O)O)nn2)c1,Beta-lactamase ADC-7,"enzyme activity, inhibitor, competition kinetics",,added: nitrocefin,1.6 µM
Oc1c(C(Nc2nc3ccccc3s2)c2cccc(OCc3ccccc3)c2)ccc2cccnc12 (stereo not drawn),"Genome polyprotein, protease (Dengue virus type 2, UniProt P14340)","enzyme activity, inhibitor",,,2.36 µM
CN(C)c1ccc2c(c1)C(=O)N(C(C(=O)O)C(C)(C)S)C2=O (stereo not drawn),Metallo-beta-lactamase type 2,"enzyme activity, inhibitor",,"Km 4.8 µM, added: chromacef 25 µM",> 3 µM
CCCSC[C@H]1CN(Cc2c[nH]c3c(N)ncnc23)C[C@@H]1O,Aminodeoxyfutalosine nucleosidase,"enzyme activity, inhibitor",,initial,5.8e-05 ± 1.4e-05 µM
CCCCCCCCCC[C@@H]1O[C@@H]1CCCCC(C)C,"pheromone-binding protein 1 (Lymantria dispar, UniProt O16105)","binding, competitive fluorescence binding",,"pH 5.5, pheromone-binding protein 1, added: 1-NPN probe",5.32 ± 0.11 µM
Nc1nc2c(ncn2[C@@H]2O[C@H](COP(=O)(O)OP(=O)(O)O[C@H]3O[C@@H](CNC(=O)Cc4ccccc4)[C@@H](O)[C@@H](O)[C@@H]3F)[C@@H](O)[C@H]2O)c(=O)[nH]1,FUT3,"enzyme activity, inhibitor",,,6.2 µM
CCCCCCSC[C@H]1CN(Cc2c[nH]c3c(N)ncnc23)C[C@@H]1O,Aminodeoxyfutalosine nucleosidase,"enzyme activity, inhibitor",,slow-onset equilibrium,5e-06 ± 2e-06 µM
COC(=O)[C@]1(C)C=C(C(=O)OC(C)(C)C)C(=O)CC1,MAPK14,"ligand displacement, FP",,,8.3 µM
CC[C@H](C)[C@H](NC(C)=O)C(=O)N[C@H](C(=O)N[C@H](C(=O)N[C@@H](CN)C(=O)N[C@H](C=O)CC(=O)O)C(C)C)[C@@H](C)O,CASP6,"enzyme activity, inhibitor, fluorescence",,pH 7,38 µM
COc1cc(Cc2cnc(N)nc2N)cc(/C=C/C(=O)N2N=Cc3ccccc3C2Cc2ccccc2)c1OC (stereo not drawn),Dihydrofolate reductase,"enzyme activity, inhibitor",,added: dihydrofolate (Km 10.9 µM),0.005 µM
CC(C)(C)OC(=O)C1=C[C@@](C)(C(=O)OCC#Cc2ccncc2)CCC1=O,MAPK14,"ligand displacement, FP",,,1.5 µM
CNC(=O)C1CCN(c2ccccc2NC(=O)c2ccc(-c3c(C)ccc4[nH]ncc34)c(C)c2)CC1,EPHA4,"enzyme activity, inhibitor",,,0.0097 µM
CCOC(=O)C(CS)N1C(=O)c2ccc(N(C)C)cc2C1=O (stereo not drawn),Metallo-beta-lactamase type 2,"enzyme activity, inhibitor",,"Km 4.8 µM, added: chromacef 25 µM",0.0042 ± 0.0005 µM
CC(=O)N[C@@H](CC(=O)O)C(=O)N[C@H](C(=O)N1CCC[C@H]1C(=O)N[C@H](C=O)CC(=O)O)C(C)C,CASP6,"enzyme activity, inhibitor, fluorescence",,pH 7,> 100 µM
CC(C)C[C@H](NC(=O)N(CCCNC(=N)N)NC(=O)[C@H](Cc1ccc(O)cc1)NC(=O)CCCCCCC(=O)N[C@@H](Cc1ccc(O)cc1)C(=O)NN(CCCNC(=N)N)C(=O)N[C@@H](CC(C)C)C(=O)N[C@@H](CCCNC(=N)N)C(=O)N[C@@H](Cc1ccc(O)cc1)C(N)=O)C(=O)N[C@@H](CCCNC(=N)N)C(=O)N[C@@H](Cc1ccc(O)cc1)C(N)=O,"Neuropeptide Y receptor type 4 (NPY4R, Homo sapiens, UniProt P50391)",,,,0.113 ± 0.014 µM
COc1ccccc1/C=C/C(=O)c1ccccc1,cathepsin H,"competitive inhibitor, Lineweaver-Burk plot",goat liver enzyme,"pH 7.0, added: Leu-βNA substrate",100 ± 0.2 µM
O=C(Cc1ccccc1)Nc1ccccc1NC(=O)Cc1ccccc1,"Protoporphyrinogen oxidase (PPOX, Homo sapiens, UniProt P50336)","enzyme activity, inhibitor, fluorescence",,,> 250 µM
Cc1cc(N)nc(CC2CNCC2OCCNCC(F)(F)c2ccc(F)cc2)c1 (stereo not drawn),Nos1,"enzyme activity, inhibitor, hemoglobin capture",,,0.16 µM
Cc1cc(N)nc(C[C@H]2CNC[C@H]2OCCC/C=C/c2cccc(F)c2)c1,Nos1,"enzyme activity, inhibitor",,pH 7.4,15.4 µM
NC(=O)N/N=C(\C=C\c1cccc([N+](=O)[O-])c1)c1ccccc1,cathepsin H,"competitive inhibitor, Lineweaver-Burk plot",goat liver enzyme,"pH 7.0, added: Leu-βNA substrate",33 ± 0.1 µM
Cc1cc(N)nc(C[C@H]2CNC[C@H]2OCCCCCc2cccc(F)c2)c1,Nos1,"enzyme activity, inhibitor",,pH 7.4,9.06 µM
CC(C)COCCCCCN1C[C@H](O)[C@@H](O)[C@H](O)[C@H]1CO,"Beta-glucosidase (GBA2, Homo sapiens, UniProt Q9HCG7)","enzyme activity, inhibitor",HEK293T overexpressing homogenate,added: 4MU-β-D-glucopyranoside,0.0075 µM
COc1ccc(/C=C/C(=O)c2ccccc2)cc1,cathepsin H,"competitive inhibitor, Lineweaver-Burk plot",goat liver enzyme,"pH 7.0, added: Leu-βNA substrate",138 ± 0.1 µM
CNC(=O)C1CCN(c2cc(C)c(F)cc2NC(=O)c2ccc(-c3cc(O)ccc3C)c(C)c2)CC1,EPHA4,"cell-free assay, TR-FRET",,,0.0008 µM
Cc1ccc(S(=O)(=O)NC(=O)[C@H]2O[C@@H](n3cnc4c(N)ncnc43)[C@H](O)[C@@H]2O)cc1,RNASE1,"enzyme activity, inhibitor, fluorescence",,,4800 µM
Cc1ccc(C2=NN(C(=O)CCC(=O)O)C(c3cc4cc5c(cc4nc3Cl)OCCO5)C2)cc1 (stereo not drawn),"Parathyroid hormone/parathyroid hormone-related peptide receptor (PTH1R, Homo sapiens, UniProt Q03431)","ligand displacement, radioligand",,,5.6 µM
NC(=O)N/N=C(\C=C\c1cccc(Cl)c1)c1ccccc1,cathepsin H,"competitive inhibitor, Lineweaver-Burk plot",goat liver enzyme,"pH 7.0, added: Leu-βNA substrate",60 ± 0.1 µM
CCC(CC)C1c2ccccc2C=NN1C(=O)/C=C/c1cc(Cc2cnc(N)nc2N)cc(OC)c1OC (stereo not drawn),Dihydrofolate reductase,"enzyme activity, inhibitor",,added: dihydrofolate (Km 10.9 µM),0.0074 µM
Cc1ccc(S(=O)(=O)NCc2cn(CB(O)O)nn2)cc1,Beta-lactamase ADC-7,"enzyme activity, inhibitor",,added: nitrocefin,0.09 ± 0.01 µM
CNC(=O)C1CCN(c2ccccc2NC(=O)c2ccc(-c3ccncc3)c(C)c2)CC1,EPHA4,,,,> 0.25 µM
CCN(CC)c1ccc2c(-c3ccc(S(=O)(=O)NCCCCCC(=O)NCCCN4CCN(CCSC(c5ccc(F)cc5)c5ccc(F)cc5)CC4)cc3S(=O)(=O)[O-])c3ccc(=[N+](CC)CC)cc-3oc2c1,"Sodium-dependent serotonin transporter (Slc6a4, Rattus norvegicus, UniProt P31652)","ligand displacement, radioligand",,cell membranes,6.66 µM
CC[C@H](C)[C@H](NC(=O)[C@H](CCC(N)=O)NC(=O)[C@H](CCCNC(=N)N)NC(=O)[C@H](CC(C)C)NC(=O)[C@@H](NC(=O)[C@H](CCCCN)NC(=O)[C@H](Cc1ccc(O)cc1)NC(=O)[C@H](CCCCN)NC(=O)[C@H](CC(=O)O)NC(=O)[C@H](CCCNC(=N)N)NC(=O)CNC(=O)[C@H](CC(C)C)NC(=O)[C@@H](N)CCCNC(=N)N)[C@@H](C)O)C(=O)N[C@@H](CCCNC(=N)N)C(=O)N[C@@H](CCC(N)=O)C(=O)O,"Leucine-rich repeat serine/threonine-protein kinase 2 (Lrrk2, Mus musculus, UniProt Q5S006)","enzyme activity, inhibitor, TR-FRET",,"Ki,ea, added: ATP varied, PLK-peptide substrate",650 ± 60 µM
COc1cc(Cc2cnc(N)nc2N)cc(/C=C/C(=O)N2N=Cc3ccccc3C2c2ccccc2C)c1OC (stereo not drawn),Dihydrofolate reductase,"enzyme activity, inhibitor",,added: dihydrofolate (Km 10.9 µM),0.0072 µM and > 0.005 µM
O=C(/C=C/c1ccccc1)c1ccccc1,cathepsin H,"competitive inhibitor, Lineweaver-Burk plot",goat liver enzyme,"pH 7.0, added: Leu-βNA substrate",263 ± 2 µM

# For quick reference, copied from above:
SMILES,target,test,test system,setting,Ki
C#CCOC(=O)[C@@]1(C)C=C(C(=O)OC(C)(C)C)C(=O)CC1,MAPK14,"ligand displacement, FP",,,3.5 µM
CNC(=O)C1CCN(c2ccccc2NC(=O)c2ccc(-c3cc(OC)ccc3C)c(C)c2)CC1,EPHA4,,,,> 0.25 µM
NS(=O)(=O)c1cccc(-c2cn(CB(O)O)nn2)c1,Beta-lactamase ADC-7,"enzyme activity, inhibitor, competition kinetics",,added: nitrocefin,1.6 µM
Oc1c(C(Nc2nc3ccccc3s2)c2cccc(OCc3ccccc3)c2)ccc2cccnc12 (stereo not drawn),"Genome polyprotein, protease (Dengue virus type 2, UniProt P14340)","enzyme activity, inhibitor",,,2.36 µM
CN(C)c1ccc2c(c1)C(=O)N(C(C(=O)O)C(C)(C)S)C2=O (stereo not drawn),Metallo-beta-lactamase type 2,"enzyme activity, inhibitor",,"Km 4.8 µM, added: chromacef 25 µM",> 3 µM
CCCSC[C@H]1CN(Cc2c[nH]c3c(N)ncnc23)C[C@@H]1O,Aminodeoxyfutalosine nucleosidase,"enzyme activity, inhibitor",,initial,5.8e-05 ± 1.4e-05 µM
CCCCCCCCCC[C@@H]1O[C@@H]1CCCCC(C)C,"pheromone-binding protein 1 (Lymantria dispar, UniProt O16105)","binding, competitive fluorescence binding",,"pH 5.5, pheromone-binding protein 1, added: 1-NPN probe",5.32 ± 0.11 µM
